Assay results collected from several papers.

| Compound | target or system | assay | system | conditions | scale | endpoint | value |
| --- | --- | --- | --- | --- | --- | --- | --- |
| Clc1ccc(Nc2nnc(Cc3ccncc3)c3ccccc23)cc1 | iCell Cardiomyocytes (hiPSC-derived) | xCELLigence Cardio impedance |  | concentration not given, 2 h | baseline: control | beat rate | 101% |
| O=C(/C=C/C=C/C=C/C1CCCCC1)NC1=C[C@@](O)(/C=C/C=C/C=C/C(=O)NC2=C(O)CCC2=O)[C@@H]2O[C@@H]2C1=O | SW-403 | cell growth, CellTiter-Glo |  | 78 h |  | GI50 | 17500 nM |
| CCC(C)C(=O)C(=O)O (stereo not drawn) |  | binding, equilibrium dialysis LC-MS |  | 5 µM, thermostabilized A2AR-BRIL construct | baseline: no-protein control, direction not given | z-scored log2 fold change | -0.0335 |
| c1ccc(-c2cccc(Cc3ncnc4ccccc34)c2)cc1 | A549 | mitochondrial oxygen consumption, Seahorse XF96 |  | 10 µM |  | inhibition | 65% |
| C#Cc1cccc(Nc2ncnc3cc(OCCOC)c(OCCOC)cc23)c1 | iCell Cardiomyocytes (hiPSC-derived) | xCELLigence Cardio impedance |  | concentration not given, 2 h | baseline: control | beat rate | 102% |
| CCn1cc(-c2cc(Cn3ccnc3)cc3c2CCN([C@H](c2cc(OC)ccn2)C2CC2)C3=O)c(C(F)(F)F)n1 | OVTOKO | cell growth, inhibitor |  | 120 h |  | EC50 | 1660 nM |
| Cn1cc(-c2ccc(F)c(C(F)(F)F)c2)nc1C1CCN(c2ncnc3[nH]ncc23)CC1 | SK-OV-3 | ATP |  | 1 µM, 4 days, 3D gellan gum culture | baseline: untreated | relative cell number | 95.2% |
| COc1cnc2cccc(N3CCc4c(cc(Cn5ccnc5C)cc4-c4cn(C)nc4C(F)(F)F)C3=O)c2c1 | Ramos | cell growth, inhibitor |  | 120 h |  | EC50 | 4520 nM |
| OCCn1cc(-c2ccc3c(c2)CC/C3=N\O)c(-c2ccncc2)n1 | iCell Cardiomyocytes (hiPSC-derived) | CellTiter-Glo |  | concentration not given, 24 h | baseline: control | ATP level | 95.6% |
| CCn1cc(-c2cc(Cn3ccoc3=N)cc3c2CCN([C@@H](C)c2cc(OC)ccn2)C3=O)c(C(F)(F)F)n1 | GP2d | cell growth, inhibitor |  | 120 h |  | EC50 | 901 nM |
| COc1ccc(OC)c(-c2nc3ccc(-c4nc5ccc(N6CCN(C)CC6)cc5[nH]4)cc3[nH]2)c1 | BT-549 | SRB |  | 10 µM, 48 h |  | growth percent | 96% |
| CCOc1cc2ncc(C#N)c(Nc3ccc(OCc4ccccn4)c(Cl)c3)c2cc1NC(=O)/C=C/CN(C)C | iCell Cardiomyocytes (hiPSC-derived) | xCELLigence Cardio impedance |  | concentration not given, 2 h | baseline: control | beat amplitude | 100% |
| Cn1cc(-c2ccc(-c3cncc(Cl)c3N3CCC4(CCNC4=O)CC3)cc2)cn1 | COLO 205 | gene expression, microarray, refers to: EGFR mRNA |  | concentration not given, 2 h | baseline: untreated cells | log2 fold change | -1.51 |
| Nc1ncnc2c1ncn2[C@@H]1O[C@H](COP(=O)(O)OP(=O)(O)OP(=O)(O)O)[C@@H](O)[C@H]1O |  | binding, equilibrium dialysis LC-MS |  | 5 µM, thermostabilized A2AR-BRIL construct | baseline: no-protein control, direction not given | z-scored log2 fold change | -0.441 |
| COc1ccc2c(c1OC)CN1CCc3cc4c(cc3C1=C2)OCO4 | KU812 |  | culture supernatant | 37 µM, with: A23187 |  | PGD2 level | 240 pg/mL |
| O=C(NC1CCNCC1)c1[nH]ncc1NC(=O)c1c(Cl)cccc1Cl | iCell Cardiomyocytes (hiPSC-derived) | CellTiter-Glo |  | concentration not given, 24 h | baseline: control | ATP level | 94.5% |
| COc1cc(-c2ccccc2)ncc1C(=O)Nc1ccc2c(=O)[nH]c(-c3ccc(C(C)(C)O)cc3)nc2c1 | Apc Q1405X mutant organoids | organoid viability, AlamarBlue | mouse small intestinal organoids | 6 days, Tnks genotype Tnks-/- |  | Hill slope | -1.2 |
| CC1(C)COc2ccc(F)cc2CN2c3nc4c(cnn4cc3OC[C@H]2C(F)F)C(=O)N1 | Ba/F3 EML4-ALK variant 1 E1210K | cell viability |  |  |  | IC50 | 7.41 nM |

Repeated from above:
| Compound | target or system | assay | system | conditions | scale | endpoint | value |
| --- | --- | --- | --- | --- | --- | --- | --- |
| CCOc1cc2ncc(C#N)c(Nc3ccc(OCc4ccccn4)c(Cl)c3)c2cc1NC(=O)/C=C/CN(C)C | iCell Cardiomyocytes (hiPSC-derived) | xCELLigence Cardio impedance |  | concentration not given, 2 h | baseline: control | beat amplitude | 100% |
| Cn1cc(-c2ccc(-c3cncc(Cl)c3N3CCC4(CCNC4=O)CC3)cc2)cn1 | COLO 205 | gene expression, microarray, refers to: EGFR mRNA |  | concentration not given, 2 h | baseline: untreated cells | log2 fold change | -1.51 |
| Nc1ncnc2c1ncn2[C@@H]1O[C@H](COP(=O)(O)OP(=O)(O)OP(=O)(O)O)[C@@H](O)[C@H]1O |  | binding, equilibrium dialysis LC-MS |  | 5 µM, thermostabilized A2AR-BRIL construct | baseline: no-protein control, direction not given | z-scored log2 fold change | -0.441 |
